# Measured values collected from several papers.
# Parts stem from different laboratories: compare values within a part only.
# Chain of UniProt P23458 (whole entry, looked up): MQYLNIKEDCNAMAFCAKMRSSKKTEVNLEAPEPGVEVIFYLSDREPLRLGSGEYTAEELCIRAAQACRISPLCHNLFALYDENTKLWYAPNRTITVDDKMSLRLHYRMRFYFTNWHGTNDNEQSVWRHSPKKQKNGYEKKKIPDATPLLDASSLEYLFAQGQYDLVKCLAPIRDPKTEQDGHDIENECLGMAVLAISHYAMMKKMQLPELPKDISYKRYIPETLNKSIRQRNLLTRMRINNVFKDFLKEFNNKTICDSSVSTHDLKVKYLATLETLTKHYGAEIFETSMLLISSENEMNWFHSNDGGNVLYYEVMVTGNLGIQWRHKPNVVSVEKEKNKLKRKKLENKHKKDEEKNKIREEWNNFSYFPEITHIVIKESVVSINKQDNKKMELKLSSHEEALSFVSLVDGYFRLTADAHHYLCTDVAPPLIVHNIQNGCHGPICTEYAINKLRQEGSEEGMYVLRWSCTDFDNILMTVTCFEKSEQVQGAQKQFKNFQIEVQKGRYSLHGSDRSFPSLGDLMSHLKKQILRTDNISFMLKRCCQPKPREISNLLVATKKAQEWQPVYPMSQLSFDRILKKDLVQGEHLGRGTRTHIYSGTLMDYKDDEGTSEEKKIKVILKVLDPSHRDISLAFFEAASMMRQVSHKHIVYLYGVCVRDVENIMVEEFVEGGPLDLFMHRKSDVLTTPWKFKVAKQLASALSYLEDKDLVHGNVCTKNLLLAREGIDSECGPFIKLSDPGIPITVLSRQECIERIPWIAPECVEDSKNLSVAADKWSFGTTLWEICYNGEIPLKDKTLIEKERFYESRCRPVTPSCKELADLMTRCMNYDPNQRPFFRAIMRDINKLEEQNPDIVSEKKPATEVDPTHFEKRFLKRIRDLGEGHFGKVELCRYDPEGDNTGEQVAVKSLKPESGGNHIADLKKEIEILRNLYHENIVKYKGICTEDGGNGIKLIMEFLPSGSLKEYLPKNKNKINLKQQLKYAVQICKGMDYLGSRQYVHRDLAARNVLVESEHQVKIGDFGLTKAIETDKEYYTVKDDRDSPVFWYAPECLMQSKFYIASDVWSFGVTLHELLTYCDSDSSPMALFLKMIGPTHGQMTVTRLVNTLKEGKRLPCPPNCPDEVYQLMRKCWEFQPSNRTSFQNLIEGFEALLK
# Chain of UniProt O94768 (whole entry, looked up): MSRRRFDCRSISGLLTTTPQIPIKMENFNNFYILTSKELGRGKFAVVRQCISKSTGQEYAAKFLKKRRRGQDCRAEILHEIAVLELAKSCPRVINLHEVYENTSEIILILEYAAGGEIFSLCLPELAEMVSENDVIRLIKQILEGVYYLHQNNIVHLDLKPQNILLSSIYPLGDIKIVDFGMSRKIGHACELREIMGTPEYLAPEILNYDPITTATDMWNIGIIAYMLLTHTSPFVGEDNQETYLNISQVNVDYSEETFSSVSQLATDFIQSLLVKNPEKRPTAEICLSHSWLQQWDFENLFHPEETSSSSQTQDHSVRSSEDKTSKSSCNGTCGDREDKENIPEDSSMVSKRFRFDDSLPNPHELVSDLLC
# Chain of UniProt P11802 (whole entry, looked up): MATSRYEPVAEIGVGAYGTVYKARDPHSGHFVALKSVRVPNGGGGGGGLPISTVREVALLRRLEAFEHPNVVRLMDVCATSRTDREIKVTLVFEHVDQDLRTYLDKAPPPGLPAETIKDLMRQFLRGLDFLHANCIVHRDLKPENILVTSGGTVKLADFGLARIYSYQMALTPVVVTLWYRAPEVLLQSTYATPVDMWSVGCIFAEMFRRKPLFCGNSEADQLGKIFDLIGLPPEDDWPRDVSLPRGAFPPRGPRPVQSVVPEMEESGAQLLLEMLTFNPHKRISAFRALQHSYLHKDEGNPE
# Chain of UniProt Q00535 (whole entry, looked up): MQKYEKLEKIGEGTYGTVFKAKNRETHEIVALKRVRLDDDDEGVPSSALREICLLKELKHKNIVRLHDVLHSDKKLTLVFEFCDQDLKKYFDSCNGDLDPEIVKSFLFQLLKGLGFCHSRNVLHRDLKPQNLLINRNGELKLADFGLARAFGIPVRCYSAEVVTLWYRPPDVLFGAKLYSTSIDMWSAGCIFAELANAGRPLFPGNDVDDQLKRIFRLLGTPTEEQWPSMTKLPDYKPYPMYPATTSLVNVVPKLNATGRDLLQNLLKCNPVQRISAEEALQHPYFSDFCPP
# Chain of UniProt P42336 (whole entry, unmodified, looked up): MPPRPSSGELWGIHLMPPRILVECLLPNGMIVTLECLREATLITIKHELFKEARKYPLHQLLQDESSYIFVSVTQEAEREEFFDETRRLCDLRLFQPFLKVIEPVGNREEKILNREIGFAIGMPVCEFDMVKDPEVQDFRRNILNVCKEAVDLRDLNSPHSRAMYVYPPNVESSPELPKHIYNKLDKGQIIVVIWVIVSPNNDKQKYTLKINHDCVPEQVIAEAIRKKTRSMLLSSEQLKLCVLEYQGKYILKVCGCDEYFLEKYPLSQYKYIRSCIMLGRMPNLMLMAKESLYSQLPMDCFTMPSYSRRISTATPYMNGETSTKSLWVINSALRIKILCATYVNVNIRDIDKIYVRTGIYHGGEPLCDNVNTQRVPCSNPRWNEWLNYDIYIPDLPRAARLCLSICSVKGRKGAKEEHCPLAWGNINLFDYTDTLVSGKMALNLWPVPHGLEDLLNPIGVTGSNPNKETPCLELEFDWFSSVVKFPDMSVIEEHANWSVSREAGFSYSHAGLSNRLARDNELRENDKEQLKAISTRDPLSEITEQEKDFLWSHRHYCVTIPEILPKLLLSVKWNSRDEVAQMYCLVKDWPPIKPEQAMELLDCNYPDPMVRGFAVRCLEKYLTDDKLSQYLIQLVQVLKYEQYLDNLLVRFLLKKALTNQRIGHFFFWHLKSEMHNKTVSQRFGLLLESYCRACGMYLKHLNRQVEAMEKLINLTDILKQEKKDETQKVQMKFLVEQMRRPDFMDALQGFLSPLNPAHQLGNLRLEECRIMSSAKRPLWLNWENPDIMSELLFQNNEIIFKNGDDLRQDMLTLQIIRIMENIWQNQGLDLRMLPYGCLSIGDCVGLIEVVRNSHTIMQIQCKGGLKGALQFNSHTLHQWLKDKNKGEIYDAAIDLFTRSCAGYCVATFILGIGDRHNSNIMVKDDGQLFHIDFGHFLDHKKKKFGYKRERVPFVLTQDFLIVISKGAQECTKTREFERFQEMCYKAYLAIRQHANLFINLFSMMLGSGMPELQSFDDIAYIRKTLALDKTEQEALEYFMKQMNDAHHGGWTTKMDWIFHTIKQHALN
# Chain of UniProt Q6P2M8 (whole entry, looked up): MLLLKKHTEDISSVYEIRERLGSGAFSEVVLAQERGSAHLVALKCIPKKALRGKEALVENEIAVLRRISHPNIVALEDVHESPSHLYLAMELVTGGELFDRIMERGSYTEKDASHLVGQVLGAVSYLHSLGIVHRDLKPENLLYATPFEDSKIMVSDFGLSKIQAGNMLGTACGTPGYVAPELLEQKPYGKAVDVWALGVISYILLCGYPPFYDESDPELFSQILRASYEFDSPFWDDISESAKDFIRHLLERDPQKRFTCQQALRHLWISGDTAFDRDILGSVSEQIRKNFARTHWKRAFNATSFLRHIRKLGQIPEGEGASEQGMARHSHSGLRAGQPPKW
# Chain of UniProt Q13470 (whole entry, looked up): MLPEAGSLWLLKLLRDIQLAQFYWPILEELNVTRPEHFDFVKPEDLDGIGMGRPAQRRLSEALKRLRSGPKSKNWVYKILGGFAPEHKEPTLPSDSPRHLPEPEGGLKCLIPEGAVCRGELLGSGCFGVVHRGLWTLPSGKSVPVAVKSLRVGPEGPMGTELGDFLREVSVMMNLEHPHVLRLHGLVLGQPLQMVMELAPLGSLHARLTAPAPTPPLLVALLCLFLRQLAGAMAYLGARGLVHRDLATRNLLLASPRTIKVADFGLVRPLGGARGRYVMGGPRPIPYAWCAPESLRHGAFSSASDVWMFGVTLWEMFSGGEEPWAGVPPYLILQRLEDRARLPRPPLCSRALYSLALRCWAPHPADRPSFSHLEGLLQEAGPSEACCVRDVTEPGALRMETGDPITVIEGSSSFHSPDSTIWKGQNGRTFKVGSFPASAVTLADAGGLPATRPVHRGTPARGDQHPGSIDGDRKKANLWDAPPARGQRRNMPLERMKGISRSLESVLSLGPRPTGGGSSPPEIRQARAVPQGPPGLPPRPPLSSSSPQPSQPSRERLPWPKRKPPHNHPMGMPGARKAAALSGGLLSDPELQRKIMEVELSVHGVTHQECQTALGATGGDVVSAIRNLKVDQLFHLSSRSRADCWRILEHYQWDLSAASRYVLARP

# Study 1
# SMILES: Cc1c(NC(=O)c2cc(C(N)=O)nc3cc(F)ccc23)c(C(F)(F)F)nn1Cc1ccc(C(C)(C)C)cc1
# Tested at: 1 µM
target,test,remaining binding [%]
"Phosphatidylinositol 4,5-bisphosphate 3-kinase catalytic subunit beta isoform (PIK3CB, Homo sapiens, UniProt P42338)","cell-free assay, competition with immobilised ligand",100
"Serine/threonine-protein kinase Sgk1 (SGK1, Homo sapiens, UniProt O00141)","cell-free assay, competition with immobilised ligand",100
"Tyrosine-protein kinase ABL1, phosphorylated (ABL1, Homo sapiens, UniProt P00519, F317I)",binding,100
"Ephrin type-A receptor 2 (EPHA2, Homo sapiens, UniProt P29317)","cell-free assay, competition with immobilised ligand",97
"Megakaryocyte-associated tyrosine-protein kinase (MATK, Homo sapiens, UniProt P42679)","cell-free assay, competition with immobilised ligand",66
"Phosphatidylinositol 4,5-bisphosphate 3-kinase catalytic subunit alpha isoform (PIK3CA, Homo sapiens, UniProt P42336, E545A)","cell-free assay, competition with immobilised ligand",100
"Serine/threonine-protein kinase Chk1 (CHEK1, Homo sapiens, UniProt O14757)","cell-free assay, competition with immobilised ligand",100
"Serine/threonine-protein kinase MRCK alpha (CDC42BPA, Homo sapiens, UniProt Q5VT25)","cell-free assay, competition with immobilised ligand",100
"SRSF protein kinase 3 (SRPK3, Homo sapiens, UniProt Q9UPE1)","cell-free assay, competition with immobilised ligand",100
"Serine/threonine-protein kinase 24 (STK24, Homo sapiens, UniProt Q9Y6E0)","cell-free assay, competition with immobilised ligand",100
"Tyrosine-protein kinase JAK1, JH2 (JAK1, Homo sapiens, UniProt P23458)","cell-free assay, competition with immobilised ligand",100
"Receptor-type tyrosine-protein kinase FLT3 (FLT3, Homo sapiens, UniProt P36888, N841I)","cell-free assay, competition with immobilised ligand",52
"Ephrin type-B receptor 3 (EPHB3, Homo sapiens, UniProt P54753)","cell-free assay, competition with immobilised ligand",100
"LIM domain kinase 1 (LIMK1, Homo sapiens, UniProt P53667)","cell-free assay, competition with immobilised ligand",100
"Tyrosine-protein kinase SYK (SYK, Homo sapiens, UniProt P43405)","cell-free assay, competition with immobilised ligand",90
"Cyclin-dependent kinase 4 (CDK4, Homo sapiens, UniProt P11802)","cell-free assay, competition with immobilised ligand",100
"Casein kinase II subunit alpha (CSNK2A1, Homo sapiens, UniProt P68400)","cell-free assay, competition with immobilised ligand",100
"Serine/threonine-protein kinase pim-1 (PIM1, Homo sapiens, UniProt P11309)","cell-free assay, competition with immobilised ligand",100
"Membrane-associated tyrosine- and threonine-specific cdc2-inhibitory kinase (PKMYT1, Homo sapiens, UniProt Q99640)","cell-free assay, competition with immobilised ligand",100
"Casein kinase I isoform gamma-2 (CSNK1G2, Homo sapiens, UniProt P78368)","cell-free assay, competition with immobilised ligand",100
"Mitogen-activated protein kinase kinase kinase kinase 1 (MAP4K1, Homo sapiens, UniProt Q92918)","cell-free assay, competition with immobilised ligand",100
"Cyclin-dependent kinase 5 (CDK5, Homo sapiens, UniProt Q00535)","cell-free assay, competition with immobilised ligand",76
"Tyrosine-protein kinase receptor TYRO3 (TYRO3, Homo sapiens, UniProt Q06418)","cell-free assay, competition with immobilised ligand",100
"Calcium/calmodulin-dependent protein kinase type 1B (PNCK, Homo sapiens, UniProt Q6P2M8)","cell-free assay, competition with immobilised ligand",100
"Serine/threonine-protein kinase 17B (STK17B, Homo sapiens, UniProt O94768)","cell-free assay, competition with immobilised ligand",100

# Study 2
# Organism: Sarcocystis neurona
# Observed: parasite growth
# Tested at: 10 µM
# Setting: secondary screen
Structure (SMILES),inhibition [%]
COc1cc([C@@H]2c3cc4c(cc3[C@@H](O[C@@H]3O[C@@H]5CO[C@@H](C)O[C@H]5[C@H](O)[C@H]3O)[C@H]3COC(=O)[C@H]23)OCO4)cc(OC)c1O,-45.1
CC(=O)Oc1ccccc1C(=O)Nc1ncc([N+](=O)[O-])s1,-137
CC(=O)[C@@]1(O)CC[C@H]2[C@@H]3C[C@H](C)C4=CC(=O)C=C[C@]4(C)[C@@]3(F)[C@@H](O)C[C@@]21C,-52.7
CC#C[C@]1(O)CC[C@H]2[C@@H]3CCC4=CC(=O)CCC4=C3[C@@H](c3ccc(N(C)C)cc3)C[C@@]21C,8.6
CO[C@@H]1[C@@H](O[C@@H]2O[C@H](C)[C@@H](O[C@H]3C[C@@](C)(O)[C@@H](OC(=O)CC(C)C)[C@H](C)O3)[C@H](N(C)C)[C@H]2O)[C@@H](CC=O)C[C@@H](C)[C@@H](O)/C=C/C=C/C[C@@H](C)OC(=O)C[C@H]1OC(C)=O,9.2
O=C1CCc2ccc(OCCCCN3CCN(c4cccc(Cl)c4Cl)CC3)cc2N1,-2.8
O=C(CCCN1CC=C(n2c(=O)[nH]c3ccccc32)CC1)c1ccc(F)cc1,-2
COc1ccc(CC2c3cc(OC)c(OC)cc3CC[N+]2(C)CCC(=O)OCCCCCOC(=O)CC[N+]2(C)CCc3cc(OC)c(OC)cc3C2Cc2ccc(OC)c(OC)c2)cc1OC (stereo not drawn),-0.133
CC[C@H]1OC(=O)[C@H](C)[C@@H](O[C@H]2C[C@@](C)(OC)[C@@H](O)[C@H](C)O2)[C@H](C)[C@@H](O[C@@H]2O[C@H](C)C[C@H](N(C)C)[C@H]2O)[C@](C)(O)C[C@@H](C)CN(C)[C@H](C)[C@@H](O)[C@]1(C)O,-5.7
CC(=O)O[C@@]12CO[C@@H]1C[C@H](O)[C@@]1(C)C(=O)[C@H](O)C3=C(C)[C@@H](OC(=O)[C@H](O)[C@@H](NC(=O)OC(C)(C)C)c4ccccc4)C[C@@](O)([C@@H](OC(=O)c4ccccc4)[C@H]21)C3(C)C,50.1

# Study 3
# Technique: PRP chromatography
# Setting: linear fit, 1 mL
Compound,"logD 1,9-decadiene/water [log units]"
CC(C)C[C@@H]1NC(=O)[C@H](C(C)C)NC(=O)[C@@H](CC(C)C)NC(=O)[C@@H](CC(C)C)NC(=O)[C@@H](Cc2cscn2)NC(=O)[C@H](CC(C)C)NC(=O)[C@@H](CC(C)C)NC1=O,1.09
CC(C)C[C@@H]1NC(=O)[C@H](C(C)C)NC(=O)[C@H](C)NC(=O)[C@@H](CC(C)C)NC(=O)[C@H](C(C)C)NC(=O)[C@H](CC(C)C)NC(=O)[C@@H](CC(C)C)NC1=O,0.0587
CC(C)C[C@@H]1NC(=O)[C@H](C)NC(=O)[C@H](CC(C)C)NC(=O)[C@@H](CCC(=O)N2CCCC2)NC(=O)[C@H](CC(C)C)NC(=O)[C@@H](CC(C)C)NC(=O)[C@H](CC(C)C)NC1=O,-0.54
CC(C)C[C@@H]1NC(=O)[C@H](CC(C)C)NC(=O)[C@H](CC(C)C)NC(=O)[C@H](CC(C)C)NC(=O)[C@@H](CCC(=O)N2CCCC2)NC(=O)[C@H](Cc2cscn2)NC(=O)[C@H](C)NC1=O,-1.43
CC(C)C[C@@H]1NC(=O)[C@H](C)NC(=O)[C@H](Cc2cscn2)NC(=O)[C@H](CC(C)C)NC(=O)[C@@H](CCC(=O)N2CCCC2)NC(=O)[C@H](CC(C)C)NC(=O)[C@@H](CC(C)C)NC1=O,-1.32
CC(C)C[C@@H]1NC(=O)[C@@H](C)NC(=O)[C@H](C)NC(=O)[C@@H](C(C)C)NC(=O)[C@H](C(C)C)NC(=O)[C@H](CC(C)C)NC(=O)[C@@H](CC(C)C)NC1=O,-1.2
CC(C)C[C@@H]1NC(=O)[C@H](C(C)C)NC(=O)[C@H](CCC(=O)N2CCCC2)NC(=O)[C@H](CC(C)C)NC(=O)[C@@H](Cc2cscn2)NC(=O)[C@H](CC(C)C)NC(=O)[C@@H](CC(C)C)NC1=O,-0.687
CC(C)C[C@@H]1NC(=O)[C@H](CCC(=O)N2CCCC2)NC(=O)[C@H](CCC(=O)N2CCCC2)NC(=O)[C@@H](CCC(=O)N2CCCC2)NC(=O)[C@H](CC(C)C)NC(=O)[C@@H](CC(C)C)NC(=O)[C@H](CC(C)C)NC1=O,-1.56
CC(C)C[C@@H]1NC(=O)[C@H](C(C)C)NC(=O)[C@@H](CC(C)C)NC(=O)[C@@H](CC(C)C)NC(=O)[C@H](C)NC(=O)[C@H](CC(C)C)NC(=O)[C@@H](CC(C)C)NC1=O,1.22
CC(C)C[C@@H]1NC(=O)[C@H](CC(C)C)NC(=O)[C@@H](CC(C)C)NC(=O)[C@@H](CC(C)C)NC(=O)[C@H](C(C)C)NC(=O)[C@H](CC(C)C)NC(=O)[C@@H](CC(C)C)NC1=O,2.28
CC(C)C[C@@H]1NC(=O)[C@H](C(C)C)NC(=O)[C@H](Cc2cscn2)NC(=O)[C@@H](CC(C)C)NC(=O)[C@H](C(C)C)NC(=O)[C@H](CC(C)C)NC(=O)[C@@H](CC(C)C)NC1=O,0.604
CC(C)C[C@@H]1NC(=O)[C@H](C)NC(=O)[C@H](CC(C)C)NC(=O)[C@@H](CC(C)C)NC(=O)[C@H](CC(C)C)NC(=O)[C@@H](C)NC(=O)[C@H](CCC(=O)N2CCCC2)NC1=O,1.54

# Study 4
# Structure (SMILES): COc1ccc2[nH]c3c4[nH]c5ccc(OC)cc5c4c4c(c3c2c1)C(=O)NC4=O
# Observed: binding
# Tested at: 1 µM
target,test,remaining binding
"Dual specificity tyrosine-phosphorylation-regulated kinase 1B (DYRK1B, Homo sapiens, UniProt Q9Y463)",,79%
"Activin receptor type-2B (ACVR2B, Homo sapiens, UniProt Q13705)",competition with immobilised ligand,44%
"Serine/threonine-protein kinase OSR1 (OXSR1, Homo sapiens, UniProt O95747)",,100%
"Cyclin-dependent kinase-like 1 (CDKL1, Homo sapiens, UniProt Q00532)",,75%
"Non-receptor tyrosine-protein kinase TNK1 (TNK1, Homo sapiens, UniProt Q13470)",competition with immobilised ligand,29%
"Proto-oncogene tyrosine-protein kinase ROS (ROS1, Homo sapiens, UniProt P08922)",,24%
"Tyrosine-protein kinase JAK1 (JAK1, Homo sapiens, UniProt P23458)",,39%
"Ephrin type-A receptor 7 (EPHA7, Homo sapiens, UniProt Q15375)",competition with immobilised ligand,86%
"RAC-gamma serine/threonine-protein kinase (AKT3, Homo sapiens, UniProt Q9Y243)",,98%

# Study 5
# SMILES: Cc1ccc(O)cc1Nc1ccnc2cc(-c3ccccn3)ccc12
# Target: Receptor-interacting serine/threonine-protein kinase 3 (RIPK3, Homo sapiens, UniProt Q9Y572)
# Chain of UniProt Q9Y572 (whole entry, looked up): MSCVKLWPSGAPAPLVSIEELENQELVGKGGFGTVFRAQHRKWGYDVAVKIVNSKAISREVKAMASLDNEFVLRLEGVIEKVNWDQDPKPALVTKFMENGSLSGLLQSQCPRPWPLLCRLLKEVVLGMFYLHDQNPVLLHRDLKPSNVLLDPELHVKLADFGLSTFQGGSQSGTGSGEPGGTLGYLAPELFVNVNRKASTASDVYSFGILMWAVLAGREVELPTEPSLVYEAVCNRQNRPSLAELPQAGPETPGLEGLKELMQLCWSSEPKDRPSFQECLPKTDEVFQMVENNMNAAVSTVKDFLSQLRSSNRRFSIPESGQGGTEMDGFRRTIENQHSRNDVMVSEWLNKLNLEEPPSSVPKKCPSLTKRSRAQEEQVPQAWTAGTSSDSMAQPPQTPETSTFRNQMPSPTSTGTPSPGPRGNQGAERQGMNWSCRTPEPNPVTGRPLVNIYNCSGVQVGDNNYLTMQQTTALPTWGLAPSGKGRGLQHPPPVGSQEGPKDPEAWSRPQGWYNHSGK
# Observed: kinase activity
# Mode: inhibitor
# Technique: ADP-Glo
# Time: 1 h
setting,inhibition
3.125 nM,42.1%
50 nM,91.5%
25 nM,81.6%
200 nM,98.2%

# Repeated from above (study 1):
target,test,remaining binding [%]
"Serine/threonine-protein kinase 24 (STK24, Homo sapiens, UniProt Q9Y6E0)","cell-free assay, competition with immobilised ligand",100
"Tyrosine-protein kinase JAK1, JH2 (JAK1, Homo sapiens, UniProt P23458)","cell-free assay, competition with immobilised ligand",100
"Receptor-type tyrosine-protein kinase FLT3 (FLT3, Homo sapiens, UniProt P36888, N841I)","cell-free assay, competition with immobilised ligand",52
"Ephrin type-B receptor 3 (EPHB3, Homo sapiens, UniProt P54753)","cell-free assay, competition with immobilised ligand",100
"LIM domain kinase 1 (LIMK1, Homo sapiens, UniProt P53667)","cell-free assay, competition with immobilised ligand",100
"Tyrosine-protein kinase SYK (SYK, Homo sapiens, UniProt P43405)","cell-free assay, competition with immobilised ligand",90
"Cyclin-dependent kinase 4 (CDK4, Homo sapiens, UniProt P11802)","cell-free assay, competition with immobilised ligand",100
"Casein kinase II subunit alpha (CSNK2A1, Homo sapiens, UniProt P68400)","cell-free assay, competition with immobilised ligand",100
"Serine/threonine-protein kinase pim-1 (PIM1, Homo sapiens, UniProt P11309)","cell-free assay, competition with immobilised ligand",100
